# Experimental data pooled from the literature.
# Compare with care: the assays were run in different laboratories. ± marks the error that the study gave.
# Sequence of UniProt P06276 (whole entry, looked up): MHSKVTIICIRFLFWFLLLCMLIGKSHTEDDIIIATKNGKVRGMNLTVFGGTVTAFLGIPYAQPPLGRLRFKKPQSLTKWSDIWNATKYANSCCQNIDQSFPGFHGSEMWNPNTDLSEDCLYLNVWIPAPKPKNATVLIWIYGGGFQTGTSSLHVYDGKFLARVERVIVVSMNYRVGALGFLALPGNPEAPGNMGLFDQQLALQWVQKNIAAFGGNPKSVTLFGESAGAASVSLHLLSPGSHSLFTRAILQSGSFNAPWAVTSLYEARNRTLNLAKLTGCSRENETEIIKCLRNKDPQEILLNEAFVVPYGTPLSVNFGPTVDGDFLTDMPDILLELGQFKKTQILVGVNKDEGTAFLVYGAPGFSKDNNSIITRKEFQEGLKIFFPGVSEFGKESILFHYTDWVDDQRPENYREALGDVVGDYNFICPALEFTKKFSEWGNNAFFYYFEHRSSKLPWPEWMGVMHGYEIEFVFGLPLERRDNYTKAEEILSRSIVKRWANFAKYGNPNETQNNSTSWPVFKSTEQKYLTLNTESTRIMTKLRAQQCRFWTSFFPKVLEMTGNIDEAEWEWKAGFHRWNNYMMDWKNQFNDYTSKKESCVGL
Structure (SMILES),tested on,assay,test system,conditions,scale,quantity,result
O=C1c2c(O)c(=O)ccn2N([C@@H]2c3ccccc3SCc3c2ccc(F)c3F)[C@@H]2COCCN12,,,"BALB/c mice, plasma","oral, 15 mg/kg baloxavir marboxil, 0.5 h",,plasma concentration,175 ng/mL
CCN(CC)C(=O)[C@@H]1C=C2c3cccc4[nH]cc(c34)C[C@H]2N(C)C1,,measured: hypersensitivity to cold,healthy volunteers,"dose not given, 0 to 12 h","reference: placebo, direction not given",List of Complaints score,0
C[C@]12C=CC(=O)C=C1CC[C@@H]1C2=CC[C@]2(C)[C@@H](C(=O)CN3CCN(c4cc(N5CCCC5)nc(N5CCCC5)n4)CC3)CC[C@@H]12,Plasmodium falciparum,,7G8,,,IC50,1 µM
COc1cc(O)ccc1OCCNCC(O)COc1cccc2[nH]c3ccccc3c12 (stereo not drawn),"Cholinesterase (BCHE, Homo sapiens, UniProt P06276)","enzyme activity, inhibitor",,Triton,,IC50,4.08 ± 2.67 µM
C=C(C)[C@@H]1CCC(C)=C[C@H]1c1c(O)cc(CCCCC)cc1O,,,human,"750 mg, trial 17075, together with: fluconazole 400 mg",,AEs leading to withdrawal,0%
CCCCCn1cc(C(=O)Nc2cccc3ccccc23)c2ccccc21,,,"rat, plasma","intraperitoneal, 3 mg/kg, mean of 4",,apparent clearance (CL/F),18.8 mL/min/kg
OCc1ncc2n1-c1ccc(Cl)cc1C(c1ccccc1F)=NC2,,,"human, plasma","7.5 mg midazolam, day 26, median, metabolite of midazolam, together with: midazolam 7.5 mg alone",,Tmax,30 min
CC(CN1c2ccccc2Sc2ccccc21)N(C)C (stereo not drawn),Plasmodium falciparum,,7G8,,,IC50,6.31 µM
C#Cc1ccc2c(c1)C(c1ccccn1)=NCc1c(-c3cnco3)ncn1-2,,"thermodynamic equilibrium, UV",methanol,"24 h, 25 °C",,solubility,4290 µg/mL
CCCCCn1nc(C(=O)Nc2cccc3ccccc23)c2ccccc21,,,Sprague-Dawley rat liver microsomes,1 µM,,hepatic clearance,51.5 mL/min/kg
COC[C@@H](NC(C)=O)C(=O)NCc1ccccc1,,,"healthy male volunteers, plasma","oral, 100 mg single dose",,elimination rate constant,0.058 h⁻¹
CCCCCCCCCCC(=O)O[C@H]1CC[C@H]2[C@@H]3CCC4=CC(=O)CC[C@]4(C)[C@H]3CC[C@]12C,,,human male serum,"500 ng/mL, NaF 100 mg/mL, baseline testosterone 441 ng/dL",,testosterone level,451 ng/dL

# For quick reference, copied from above:
Structure (SMILES),tested on,assay,test system,conditions,scale,quantity,result
CCCCCn1nc(C(=O)Nc2cccc3ccccc23)c2ccccc21,,,Sprague-Dawley rat liver microsomes,1 µM,,hepatic clearance,51.5 mL/min/kg
CCCCCCCCCCC(=O)O[C@H]1CC[C@H]2[C@@H]3CCC4=CC(=O)CC[C@]4(C)[C@H]3CC[C@]12C,,,human male serum,"500 ng/mL, NaF 100 mg/mL, baseline testosterone 441 ng/dL",,testosterone level,451 ng/dL
